# Measurements of several laboratories.
# “And” joins repeats or separate records; there may be more than shown. Numbers after ± are the reported error.
# Chain of UniProt Q9NZJ5 (whole entry, looked up): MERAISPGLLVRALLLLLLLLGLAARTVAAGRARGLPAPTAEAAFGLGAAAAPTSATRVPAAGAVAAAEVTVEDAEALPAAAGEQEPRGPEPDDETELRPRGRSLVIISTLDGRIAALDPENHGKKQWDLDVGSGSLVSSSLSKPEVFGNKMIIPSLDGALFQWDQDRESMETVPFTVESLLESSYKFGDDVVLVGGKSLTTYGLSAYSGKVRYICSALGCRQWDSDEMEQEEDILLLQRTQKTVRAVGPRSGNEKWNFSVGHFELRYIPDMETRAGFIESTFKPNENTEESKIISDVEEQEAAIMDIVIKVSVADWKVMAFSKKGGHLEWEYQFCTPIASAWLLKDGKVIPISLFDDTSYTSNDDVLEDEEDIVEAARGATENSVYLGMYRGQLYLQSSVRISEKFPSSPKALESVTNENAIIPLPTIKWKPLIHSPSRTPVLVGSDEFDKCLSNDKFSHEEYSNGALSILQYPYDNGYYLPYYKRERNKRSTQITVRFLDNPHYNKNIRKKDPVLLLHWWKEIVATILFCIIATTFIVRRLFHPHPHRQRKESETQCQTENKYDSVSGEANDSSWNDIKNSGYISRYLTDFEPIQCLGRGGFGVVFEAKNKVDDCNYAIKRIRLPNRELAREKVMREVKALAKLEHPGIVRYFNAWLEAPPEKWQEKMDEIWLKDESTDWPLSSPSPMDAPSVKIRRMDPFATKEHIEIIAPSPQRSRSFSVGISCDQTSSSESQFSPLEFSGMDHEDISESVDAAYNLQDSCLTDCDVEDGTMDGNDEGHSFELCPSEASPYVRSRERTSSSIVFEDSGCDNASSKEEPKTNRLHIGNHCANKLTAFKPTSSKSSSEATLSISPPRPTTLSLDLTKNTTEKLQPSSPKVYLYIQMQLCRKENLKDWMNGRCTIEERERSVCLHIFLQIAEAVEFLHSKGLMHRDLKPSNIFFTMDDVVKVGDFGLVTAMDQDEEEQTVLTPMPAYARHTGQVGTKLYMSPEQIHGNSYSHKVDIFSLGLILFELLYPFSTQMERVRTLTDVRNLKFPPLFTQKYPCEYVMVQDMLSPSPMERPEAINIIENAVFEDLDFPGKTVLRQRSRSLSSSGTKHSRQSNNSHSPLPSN
# Chain of UniProt Q9UL54 (whole entry, looked up): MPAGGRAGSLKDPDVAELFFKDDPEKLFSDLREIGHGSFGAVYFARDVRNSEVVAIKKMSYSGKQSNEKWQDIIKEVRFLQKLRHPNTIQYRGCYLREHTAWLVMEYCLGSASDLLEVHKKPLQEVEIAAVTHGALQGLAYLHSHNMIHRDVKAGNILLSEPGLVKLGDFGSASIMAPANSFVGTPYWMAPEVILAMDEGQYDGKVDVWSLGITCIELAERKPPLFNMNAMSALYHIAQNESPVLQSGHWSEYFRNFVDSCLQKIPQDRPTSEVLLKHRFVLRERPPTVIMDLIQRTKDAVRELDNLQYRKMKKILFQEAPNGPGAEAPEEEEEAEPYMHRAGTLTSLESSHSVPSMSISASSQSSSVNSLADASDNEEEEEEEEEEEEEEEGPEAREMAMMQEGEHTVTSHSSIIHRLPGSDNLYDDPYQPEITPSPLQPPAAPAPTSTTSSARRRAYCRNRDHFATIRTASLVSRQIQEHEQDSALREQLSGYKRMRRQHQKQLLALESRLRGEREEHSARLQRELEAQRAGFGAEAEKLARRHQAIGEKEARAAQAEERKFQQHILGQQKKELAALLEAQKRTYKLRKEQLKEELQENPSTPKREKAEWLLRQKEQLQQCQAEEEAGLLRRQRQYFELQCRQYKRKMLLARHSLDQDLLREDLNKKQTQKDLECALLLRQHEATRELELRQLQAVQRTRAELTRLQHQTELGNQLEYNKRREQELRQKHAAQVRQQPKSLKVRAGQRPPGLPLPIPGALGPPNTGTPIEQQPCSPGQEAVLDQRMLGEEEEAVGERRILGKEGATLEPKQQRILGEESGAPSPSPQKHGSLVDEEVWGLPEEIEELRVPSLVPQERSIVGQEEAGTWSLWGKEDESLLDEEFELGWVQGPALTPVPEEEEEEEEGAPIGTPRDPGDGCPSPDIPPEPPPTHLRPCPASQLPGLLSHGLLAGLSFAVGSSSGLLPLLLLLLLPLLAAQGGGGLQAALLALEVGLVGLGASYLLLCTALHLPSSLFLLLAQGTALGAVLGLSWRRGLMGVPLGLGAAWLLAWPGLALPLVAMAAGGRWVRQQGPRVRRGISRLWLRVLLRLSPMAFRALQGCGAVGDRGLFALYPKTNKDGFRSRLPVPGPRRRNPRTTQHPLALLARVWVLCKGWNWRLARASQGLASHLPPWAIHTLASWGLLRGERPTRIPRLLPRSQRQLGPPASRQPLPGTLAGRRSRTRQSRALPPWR
Structure (SMILES),target or system,assay,test system,setting,scale,measurement,value
Cc1cc(C(=O)Nc2nc3cccc(C)c3n2[C@H]2CCCCN(C(=O)/C=C/CN(C)C)C2)ccn1,Trypanosoma brucei,propidium iodide flow cytometry,bloodstream form,"concentration not given, 3 h",,cells in sub-G0 phase,1.37%
CC(C)CC(C(=O)N1CC2(CC1C#N)C(=O)Nc1ccccc12)N(C)C(=O)c1cc2c(F)cc(F)c(F)c2[nH]1 (stereo not shown),Human coronavirus 229E,cytopathic effect,MRC5,69 pM,,inhibition,-0.113%
CC(C)[C@H]1NC(=O)C[C@H]2/C=C/CCSSC[C@@H](NC1=O)C(=O)N[C@H](Cc1cccc3ccccc13)C(=O)NCC(=O)O2,"EIF2AK3 (Homo sapiens, UniProt Q9NZJ5)","enzyme activity, inhibitor",,10 µM,,inhibition,7.1%
COc1ccccc1-c1n[nH]c2nc(N[C@H]3CC[C@H](NS(=O)(=O)CC(C)C)CC3)ncc12,,"bead binding, competition bead pull-down, refers to: LINJ.03.0190",Leishmania donovani extract,10 µM,reference: vehicle,relative abundance,0.78
Cc1cc(Oc2nc(N3CC[C@@H](c4ccncc4)C3)ncc2F)[nH]n1,Mycobacterium tuberculosis,,"THP-1, H37Rv non-replicating","0.9489 µM, day 4 plus 1",,normalised growth,51.2% and 44.8%
CC[C@H](C)[C@H](NC(=O)[C@H](CO)NC(=O)[C@H](Cc1ccc(O)cc1)NC(=O)[C@H](Cc1ccc(O)cc1)NC(=O)[C@H](CC(N)=O)NC(=O)CNC(=O)[C@H](CO)NC(=O)[C@H](Cc1ccc(O)cc1)NC(=O)[C@H](CO)NC(=O)[C@H](CO)NC(=O)[C@H](CC(N)=O)NC(=O)COCCOCCNC(=O)CN1CCN(CC(=O)O)CCN(CC(=O)O)CCN(CC(=O)O)CC1)C(=O)N[C@@H](CC(C)C)C(N)=O [copper-64 labelled],,dynamic PET,"KPC mouse, pancreatic cancer model, tumor","intravenous, 0.1 min, 49 days after tamoxifen",,tumour uptake,0.115 %ID/mL
COc1ccccc1-c1n[nH]c2nc(NC3CCN(C(=O)Cc4ccc(F)cc4F)CC3)ncc12,,"bead binding, competition bead pull-down, refers to: LMJF.22.1450",Leishmania donovani axenic amastigote extract,10 µM,reference: vehicle,relative abundance,0.96
CC(C)(C)C(=O)OCOP(=O)(OCOC(=O)C(C)(C)C)C1CCCN(O)C1=O (stereo not shown),SF-539,,,,,GI50,1520 nM
Cc1ccc(NS(=O)(=O)c2c(C(=O)N3CCCCCC3)c(C)n(C)c2C)c(Cl)c1,Fowlpox virus,viral infection,CEF,0.412 µM,reference: untreated,infection,110% and 82% and 101%
O=C1NC2(CC2)COc2ncc(F)cc2[C@H]2COCCN2c2ccn3ncc1c3n2,,,"Sprague-Dawley rat, male, serum","oral, 2.5 mg/kg/day, 4 weeks daily, end of treatment",,total cholesterol,1.31 ± 0.21 mmol/L
CS(C)(=O)=Nc1ccc(-c2ccc(-c3nc4cc(O[C@@H]5CO[C@H]6[C@@H]5OC[C@H]6O)[nH]c4cc3F)cc2)cc1,"TAOK2 (Homo sapiens, UniProt Q9UL54)","enzyme activity, inhibitor",,10 µM,,inhibition,1%
CCOC(=O)C1(Cc2cccc(C(C)C)c2)Oc2cc(F)ccc2N(Cc2cccc(C(C)C)c2)C1=O (stereo not shown),Arabidopsis thaliana,"root length, petri dish germination","Col-0, 1/2 MS medium","50 µg/mL, 7 days, 22 °C, dark",,inhibition,32.5%
CC(C)C[C@@H]1NC(=O)[C@@H](Cc2c[nH]c3ccccc23)NC(=O)[C@H](CCCNC(=N)N)NC(=O)[C@@H](CCC(=O)O)NC(=O)[C@H](CCC(N)=O)NC(=O)[C@@H](CCC(=O)O)NC(=O)[C@H](CCCNC(=N)N)NC(=O)[C@@H](Cc2c[nH]c3ccccc23)NC1=O,,"Luminex, refers to: IP-10 CXCL10","LDLr-/- mice, Western diet, liver","dose not given, 4 weeks",,cytokine level,1200 ± 380 pg/g tissue

# Excerpt of the above:
Structure (SMILES),target or system,assay,test system,setting,scale,measurement,value
COc1ccccc1-c1n[nH]c2nc(NC3CCN(C(=O)Cc4ccc(F)cc4F)CC3)ncc12,,"bead binding, competition bead pull-down, refers to: LMJF.22.1450",Leishmania donovani axenic amastigote extract,10 µM,reference: vehicle,relative abundance,0.96
